Experimental data gathered from unrelated publications.
Each numbered part is a random draw from the data of one study; scales do not carry over between parts. Positions count from the first letter of the parent shown.

Series 1 — technique: RNA Bind-n-Seq; form: RNA; matrix: in vitro; concentration: 365 nM; reference: no-protein control; direction: higher = stronger binding
Target: RNA binding protein fox-1 homolog 2, RRM domain, GST-SBP tag (RBFOX2, Homo sapiens, UniProt O43251-10, residues 100-194)
Setting: natural RNA segment, single round, ends assumed
Target sequence (chain): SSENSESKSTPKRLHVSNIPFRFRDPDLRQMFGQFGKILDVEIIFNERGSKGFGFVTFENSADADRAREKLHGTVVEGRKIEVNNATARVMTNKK
Strand | RBNS enrichment (R)
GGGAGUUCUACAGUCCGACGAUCCAACCGCCGACGGGCCAGCAAGGCCAGUCUGCCCACACUCACCAAGGACACCAAGAAGCAGGUACUGCCGCCUUGCAGCUGGCGCACAGCCAGGAGGACUCCAGCCGGUGUGGAAUUCUCGGGUGCCAA | 0.221
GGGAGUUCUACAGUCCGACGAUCGGGAGCCAGGAAGUGACGUGUGUGUCAUGUUACGGACAUCUGACUUUUGUGUGUGUGUGUGUGGGCAUCUCGCUGUAAUUGGUGCUGAAAAGUUAUUUGUGUUCAACUGAUGGAAUUCUCGGGUGCCAA | 0.524
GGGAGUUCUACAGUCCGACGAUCCCCACCCCCAUCCUGCUCCAGCGUUUCCUCUAACAGGGACCAGCUCUCCGCUUUGCCCCCACGGGGUUCCUCUAACCAGAACCAGCUUCCUAGCCUCGUAGAGACCAAAGUGGAAUUCUCGGGUGCCAA | 0.638
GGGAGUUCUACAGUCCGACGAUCGAGUACCCCAGGCAGUUUCUCAGCCUCGUCCGUUGUGUGGAGGGAAUACUGAAUUCAGUUAUCUCACCUGACUGCUUUCCUGCCCUCAGACCUGGACACUGGGCCUCAGCUGGAAUUCUCGGGUGCCAA | 0.265
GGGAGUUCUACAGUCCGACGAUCUGUACAAGUCAUUCUCUGUUAGGAUUCCUUUCAAUUCUCACUGUCUACAAUGCUCUUCAUGGUCUCAAUGUCUGUGCCAUAAGGGUAGAAAGCUAACAGUCAGUUUUUGCUGGAAUUCUCGGGUGCCAA | 0.273
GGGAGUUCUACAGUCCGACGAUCGUACGGCAAAAGAGUAUUAAUCCACUAUCUCUAGUGCUUGACUUUAAAUCAGUACAGUACCUGUACCUGCACGGUCACCCGCUCCGUGUGUCGCCCUAUAUUGAGGGCUCUGGAAUUCUCGGGUGCCAA | 0.342
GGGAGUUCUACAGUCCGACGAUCCUCCAGGUCCCGGAGGGGAUUUGUGGACCUCUCUUGUCUCCCCACCACUCCAGUGCAUUUCCGCCUGGCUCCUAGAAGCCCCAUUCAAUAUCACUACUCUUUAACGAGUGUGGAAUUCUCGGGUGCCAA | 0.789
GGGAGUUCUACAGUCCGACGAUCUAGCGUGGUAGGACUAGAUUUUUGUUUUCCCCACCAAGUAAAUGUUCACCUGUGACCUUGGGCUGGGAUUCUCUUUAGGAAAAAAGGCUACUACUAUGUUAUGAGAGUCAUGGAAUUCUCGGGUGCCAA | 0.465

Series 2 — technique: RNA Bind-n-Seq; form: RNA; matrix: in vitro; concentration: not given; setting: RNA with constant flanks, ends assumed; reference: input RNA pool; direction: higher = stronger binding
Target: RING finger protein unkempt homolog, zinc fingers 1-6, GST-SBP tag (UNK, Homo sapiens, UniProt Q9C0B0, residues 30-357)
Construct (chain): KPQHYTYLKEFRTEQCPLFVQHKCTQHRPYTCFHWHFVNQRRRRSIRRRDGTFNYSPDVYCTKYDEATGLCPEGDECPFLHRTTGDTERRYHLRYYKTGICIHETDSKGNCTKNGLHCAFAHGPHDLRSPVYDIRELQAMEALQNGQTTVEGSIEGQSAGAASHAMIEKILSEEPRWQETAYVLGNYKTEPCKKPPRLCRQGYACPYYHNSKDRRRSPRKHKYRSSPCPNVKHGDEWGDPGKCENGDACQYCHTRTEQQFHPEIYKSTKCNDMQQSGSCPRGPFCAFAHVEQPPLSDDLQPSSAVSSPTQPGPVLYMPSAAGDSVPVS
Strand | bound/input enrichment [ratio]
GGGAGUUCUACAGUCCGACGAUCCGCUGGCCCAAGCUGAUGGACUCUGAUGGCCUCCAUCUCUCAGGCACGUGUGCCUUCUCUCCGUCCCUGUUUUCGGGAUGUUAUGAAUCUCAGUACUGUGGUUUGAAAGCACCAGCUUUGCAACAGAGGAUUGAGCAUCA | 0.0844
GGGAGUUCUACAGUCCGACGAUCUAAAAUCUUUGUACUUUUUACAUGAUUGCUGUAUGUAUAUUUUGUUUUAAAUCUAAUAAAAUCCGGGACAGAGAGUGACUCGCUGGGGUUCUUGGGGUCCUUGAGAAUUAAAUUUGUCAACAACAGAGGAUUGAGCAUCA | 0.513
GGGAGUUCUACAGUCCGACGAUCUUCUUAGACCUUUUAGACAUCUUAAUAAGAAGUCCUGGGAGUAUAAAACGAGAAGAAAAGCCCGAAGAUCUUAAGCUACUUUUUGUACAUGUACAUCAUCUUAUAAAUGAAUAUCGACCCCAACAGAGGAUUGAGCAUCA | 0.72
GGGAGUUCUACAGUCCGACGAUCUGUUCCACUUUACUUUCCUUCCCGGGAAGUUUGUUUGGCUUUCUUCCAUUGUUGUUUUUGCCGCUUUUACUUCAGAAGUCUGUAUUUCCAUAAGCCAGAGGUUGUAAAGCCACUGAUGUUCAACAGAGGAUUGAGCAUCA | 0.569
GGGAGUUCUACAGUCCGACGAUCUCUGUGAAAACUUCAGUCACAACAUCAAUUUCAGAGCCUUGGACCCAAAGGAGUUUCUACCGGUCAUCUAAUGCUUCAGAUAAAGAUAGUGAUUUACAGAAAACAUUUUUUUCGUCUUCUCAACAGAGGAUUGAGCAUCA | 0.123
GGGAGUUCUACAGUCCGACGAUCGAUCCCUUGAUGGCCCCAGAAUCCCAUAUAUUAGCUUCUAACACCAUGGAGACCCAUAUAUCCGCAUCCAACACCAUGGACUCCCAAAUGCUAGCGUCCAACACCAUGGACUCCCAGAUGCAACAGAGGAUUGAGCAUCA | 1.41
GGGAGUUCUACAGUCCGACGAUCACGAUCGGGGCCUACAUCAACACAACGCACUCACGGCUCACACACAUCAGUCCUCGGCACUACCGUGAGUUUAUAGAGUUCCUCAGCAAAGCCCGAGAGACCUUCUUAAUGGCGCAUGAUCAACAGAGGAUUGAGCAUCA | 0.218
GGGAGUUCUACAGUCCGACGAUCUCUGAUGUCUCCCAGAUGAAUGAUAGACUGGGAGAAGAUGAAUCCUUGCUAAUGAAAUUAUACCGCUUCCUCCUAAACGAUUCCCCUUUGAAUCCACUACUUGCCAGUUUCUUCAGCAAGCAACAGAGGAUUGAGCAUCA | 0.206

Single results of other studies
P1: viral docking peptide; KGVKRKLFAEDSS; partner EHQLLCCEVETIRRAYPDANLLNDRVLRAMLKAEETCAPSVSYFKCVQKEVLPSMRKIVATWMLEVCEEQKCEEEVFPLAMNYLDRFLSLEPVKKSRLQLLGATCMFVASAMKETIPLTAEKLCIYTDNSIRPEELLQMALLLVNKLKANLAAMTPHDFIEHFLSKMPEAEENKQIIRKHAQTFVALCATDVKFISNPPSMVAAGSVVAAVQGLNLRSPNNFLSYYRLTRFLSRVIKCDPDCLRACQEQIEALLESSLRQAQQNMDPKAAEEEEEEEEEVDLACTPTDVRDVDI
Molecule | target | test | test system | setting | how to read | endpoint | value
DETFVHSGF | HLA class I histocompatibility antigen, A alpha chain, allele A*80:01 (Homo sapiens, UniProt P04439) | peptide-MHC binding | peptide | concentration not given |  | binding | inactive
P1 R5M | CCND1, cyclin fold, Cln2 fusion (human) | yeast growth competition, sequencing | yeast | strong parent motif | reference: not given, higher = stronger binding | normalised enrichment score | 0.0151

Excerpt of the above (series 1):
Strand | RBNS enrichment (R)
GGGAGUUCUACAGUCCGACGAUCCAACCGCCGACGGGCCAGCAAGGCCAGUCUGCCCACACUCACCAAGGACACCAAGAAGCAGGUACUGCCGCCUUGCAGCUGGCGCACAGCCAGGAGGACUCCAGCCGGUGUGGAAUUCUCGGGUGCCAA | 0.221
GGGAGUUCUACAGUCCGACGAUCGGGAGCCAGGAAGUGACGUGUGUGUCAUGUUACGGACAUCUGACUUUUGUGUGUGUGUGUGUGGGCAUCUCGCUGUAAUUGGUGCUGAAAAGUUAUUUGUGUUCAACUGAUGGAAUUCUCGGGUGCCAA | 0.524
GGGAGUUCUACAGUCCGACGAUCCCCACCCCCAUCCUGCUCCAGCGUUUCCUCUAACAGGGACCAGCUCUCCGCUUUGCCCCCACGGGGUUCCUCUAACCAGAACCAGCUUCCUAGCCUCGUAGAGACCAAAGUGGAAUUCUCGGGUGCCAA | 0.638
